# Results pooled from the literature.
# Values joined by “and” are separate records of one study, mostly repeats; a detail may differ.
# Spike glycoprotein: Spike glycoprotein (Severe acute respiratory syndrome coronavirus 2, UniProt P0DTC2)
# Chain of UniProt P81425 (whole entry, looked up): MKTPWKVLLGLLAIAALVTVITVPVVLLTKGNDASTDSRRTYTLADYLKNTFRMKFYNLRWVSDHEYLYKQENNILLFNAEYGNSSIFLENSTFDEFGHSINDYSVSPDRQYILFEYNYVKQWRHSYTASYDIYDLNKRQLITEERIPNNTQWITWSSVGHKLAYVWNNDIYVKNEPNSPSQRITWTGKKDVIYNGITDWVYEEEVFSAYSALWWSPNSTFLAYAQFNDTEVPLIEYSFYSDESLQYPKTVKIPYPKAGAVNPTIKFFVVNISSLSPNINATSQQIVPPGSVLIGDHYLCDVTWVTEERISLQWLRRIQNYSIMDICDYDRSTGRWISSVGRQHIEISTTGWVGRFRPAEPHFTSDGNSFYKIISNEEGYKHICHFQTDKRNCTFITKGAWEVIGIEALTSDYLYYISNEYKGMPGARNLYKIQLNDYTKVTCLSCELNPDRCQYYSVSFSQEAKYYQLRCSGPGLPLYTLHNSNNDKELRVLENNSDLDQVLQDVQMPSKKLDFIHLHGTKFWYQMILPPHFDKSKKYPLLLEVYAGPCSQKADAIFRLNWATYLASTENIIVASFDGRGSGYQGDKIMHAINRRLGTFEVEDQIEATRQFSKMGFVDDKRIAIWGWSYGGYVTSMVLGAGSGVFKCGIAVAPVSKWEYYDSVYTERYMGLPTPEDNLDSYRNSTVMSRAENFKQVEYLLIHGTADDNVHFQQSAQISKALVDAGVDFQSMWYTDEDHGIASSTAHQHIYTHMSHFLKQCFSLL
SMILES,tested on,assay,test system,setting,how to read,quantity,result
COc1ccc(-c2cc(=O)c3c(OC)cc(OC)c(OC)c3o2)cc1OC,"Replicase polyprotein 1ab, main protease (rep, Severe acute respiratory syndrome coronavirus 2, UniProt P0DTD1)","reporter gene (mKate2), inhibitor",,20 µM,,inhibition,-0.136%
CC[C@H](C)[C@H](NC(=O)[C@H](CC(C)C)NC(=O)[C@H](Cc1c[nH]c2ccccc12)NC(=O)[C@H](CCC(N)=O)NC(=O)[C@@H](NC(=O)[C@H](Cc1ccccc1)NC(=O)[C@H](C)NC(=O)[C@H](CCCCNC(=O)COCCOCCNC(=O)COCCOCCNC(=O)CC[C@H](NC(=O)CCCCCCCCCCCCCCCCCCC(=O)O)C(=O)O)NC(=O)[C@H](CCC(N)=O)NC(=O)[C@H](C)NC(=O)[C@@H](NC(=O)[C@H](CCCCN)NC(=O)[C@H](CC(=O)O)NC(=O)[C@H](CC(C)C)NC(=O)C(C)(C)NC(=O)[C@@H](NC(=O)[C@H](CO)NC(=O)[C@H](Cc1ccc(O)cc1)NC(=O)[C@H](CC(=O)O)NC(=O)[C@H](CO)NC(=O)[C@@H](NC(=O)[C@H](Cc1ccccc1)NC(=O)[C@@H](NC(=O)CNC(=O)[C@H](CCC(=O)O)NC(=O)C(C)(C)NC(=O)[C@@H](N)Cc1ccc(O)cc1)[C@@H](C)O)[C@@H](C)O)[C@@H](C)CC)[C@@H](C)CC)C(C)C)C(=O)N[C@@H](C)C(=O)NCC(=O)NCC(=O)N1CCC[C@H]1C(=O)N[C@@H](CO)C(=O)N[C@@H](CO)C(=O)NCC(=O)N[C@@H](C)C(=O)N1CCC[C@H]1C(=O)N1CCC[C@H]1C(=O)N1CCC[C@H]1C(=O)N[C@@H](CO)C(N)=O,,,healthy human,"8.0 mg, single ascending dose",,cough,0%
CC[C@H](C)[C@H](NC(=O)[C@H](CC(C)C)NC(=O)[C@H](Cc1c[nH]c2ccccc12)NC(=O)CNC(=O)[C@@H](NC(=O)[C@H](Cc1ccccc1)NC(=O)[C@H](CCC(=O)O)NC(=O)[C@H](CCCCN)NC(=O)[C@H](C)NC(=O)[C@H](C)NC(=O)[C@H](CCCCN)NC(=O)[C@H](CCC(=O)O)NC(=O)[C@H](CCC(=O)O)NC(=O)[C@H](CC(C)C)NC(=O)[C@H](Cc1ccc(O)cc1)NC(=O)[C@H](CC(N)=O)NC(=O)[C@@H](NC(=O)[C@H](CCSC)NC(=O)[C@H](CC(=O)O)NC(=O)[C@H](CC(N)=O)NC(=O)[C@@H](NC(=O)[C@H](Cc1ccccc1)NC(=O)[C@@H](NC(=O)CNC(=O)[C@H](CCC(=O)O)NC(=O)[C@H](CO)NC(=O)[C@@H](N)Cc1c[nH]cn1)[C@@H](C)O)[C@@H](C)O)[C@@H](C)O)C(C)C)C(=O)N[C@@H](CCCCN)C(=O)NCC(=O)NCC(=O)N1CCC[C@H]1C(=O)N[C@@H](CO)C(=O)N[C@@H](CO)C(=O)NCC(=O)N[C@@H](C)C(=O)N1CCC[C@H]1C(=O)N1CCC[C@H]1C(=O)N1CCC[C@H]1C(=O)N[C@@H](CO)C(=O)O,"Dipeptidyl peptidase 4 (Bos taurus, UniProt P81425)",GLP1R CRE-luciferase,100% fetal bovine serum,"100 nM, 96 h, 37 °C",reference: initial activity,remaining activity,> 50%
Cn1cnc(Cn2c(=O)[nH]/c(=N\c3cc4cn(C)nc4cc3Cl)n(Cc3cc(F)c(F)cc3F)c2=O)n1,,,"human, normal renal function","oral, 375 mg",,"treatment-related TEAE, Severe severity",0%
CC(C)(C)NC(=O)N[C@H](C(=O)N1C[C@H]2[C@@H]([C@H]1C(=O)NC(CC1CCC1)C(=O)C(N)=O)C2(C)C)C(C)(C)C (stereo partly drawn),Vero E6,,,48 h,,CC50,> 200 µM
CC[C@H](C)[C@H](NC(=O)[C@H](CC(C)C)NC(=O)[C@H](Cc1c[nH]c2ccccc12)NC(=O)[C@H](CCC(N)=O)NC(=O)[C@@H](NC(=O)[C@H](Cc1ccccc1)NC(=O)[C@H](C)NC(=O)[C@H](CCCCNC(=O)COCCOCCNC(=O)COCCOCCNC(=O)CC[C@H](NC(=O)CCCCCCCCCCCCCCCCCCC(=O)O)C(=O)O)NC(=O)[C@H](CCC(N)=O)NC(=O)[C@H](C)NC(=O)[C@@H](NC(=O)[C@H](CCCCN)NC(=O)[C@H](CC(=O)O)NC(=O)[C@H](CC(C)C)NC(=O)C(C)(C)NC(=O)[C@@H](NC(=O)[C@H](CO)NC(=O)[C@H](Cc1ccc(O)cc1)NC(=O)[C@H](CC(=O)O)NC(=O)[C@H](CO)NC(=O)[C@@H](NC(=O)[C@H](Cc1ccccc1)NC(=O)[C@@H](NC(=O)CNC(=O)[C@H](CCC(=O)O)NC(=O)C(C)(C)NC(=O)[C@@H](N)Cc1ccc(O)cc1)[C@@H](C)O)[C@@H](C)O)[C@@H](C)CC)[C@@H](C)CC)C(C)C)C(=O)N[C@@H](C)C(=O)NCC(=O)NCC(=O)N1CCC[C@H]1C(=O)N[C@@H](CO)C(=O)N[C@@H](CO)C(=O)NCC(=O)N[C@@H](C)C(=O)N1CCC[C@H]1C(=O)N1CCC[C@H]1C(=O)N1CCC[C@H]1C(=O)N[C@@H](CO)C(N)=O,,,"human, severe renal impairment, plasma","subcutaneous, 5 mg single dose, median",,Tmax,18 h
O=C(/C=C/c1ccc(O)c(O)c1/C=C/c1ccc(O)c(O)c1)O[C@H](Cc1ccc(O)c(O)c1)C(=O)O,Spike glycoprotein,"binding, BLI",,,,Kd,8.08 µM
Nc1ncnc2c([C@@H]3N[C@H](CO)[C@@H](O)[C@H]3O)c[nH]c12,Marburg virus,surface glycoprotein expression,"HeLa, Musoke","25 µM, 1 h",,inhibition,90.8%
CC(C)(C)[C@H](NC(=O)C(F)(F)F)C(=O)N1C[C@H]2[C@@H]([C@H]1C(=O)N[C@H](C#N)C[C@@H]1CCNC1=O)C2(C)C,,,"human, fasted","oral, 150 mg single dose, 28 days, no ritonavir",,participants with severe adverse events,0%
CN(C)c1ccc(N(Cc2cc(Cl)cs2)C(=O)Cc2cncc3ccccc23)cc1,SARS-CoV-2,,"Caco-2, Omicron BQ.1.1",,reference: CC50 over EC50,selectivity index,128
CNC(=O)[C@@H](NC(=O)[C@H](CC(C)C)[C@H](O)C(=O)NO)C(C)(C)C,C2C12,,,"100 µM, without venom, unit not given",reference: cells alone (=100),viability,99.5 and 96.8 and 91.5
O=c1cc(-c2ccc(O)c(O)c2)oc2cc(O)cc(O)c12,Spike glycoprotein,"binding, BLI",,,,Kd,97 µM
